# Measurements gathered from unrelated publications.
# Parts stem from different laboratories: compare values within a part only.

# Series 1
# Target: RNA binding protein fox-1 homolog 2, RRM domain, GST-SBP tag (RBFOX2, Homo sapiens, UniProt O43251-10, residues 100-194)
# Method: RNA Bind-n-Seq
# Molecule type: RNA
# Medium: in vitro
# Tested at: 365 nM
# Notes: natural RNA segment, single round, ends assumed
# Baseline: no-protein control
# Reading: higher = stronger binding
# Construct (chain): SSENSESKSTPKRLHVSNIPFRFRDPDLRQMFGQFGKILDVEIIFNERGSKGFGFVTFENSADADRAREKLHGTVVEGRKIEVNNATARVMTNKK
Sequence,RBNS enrichment (R)
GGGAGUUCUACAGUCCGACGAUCAAUAGAGAAGGGUCCUGUGGAGUUCCAGGCCCUGGCUGCAAUGCUCCACACACACACACACCCCUCUUGCCCAGGUGGCCUCUUGUCCUCUGCUCUUGACUCUGCCAGCCUGGAAUUCUCGGGUGCCAA,0.644
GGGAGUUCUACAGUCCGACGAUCCAGGGGGGCUGACUGCCUAGUGGCUCAACCUCCUGAACCCACCCACUCCCAGCGAUGCUACCCAGAACCCCAACGGCAUGAAUCCUGCACAGUGCCGGGCAGUGCCAGACUGGAAUUCUCGGGUGCCAA,0.337
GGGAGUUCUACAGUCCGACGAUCAGCUUGGGAAUACGUCACCUGAGAUCACAGGUGAUCCAAGCCGCAGAUGUGACAGCUGGGCUCUGAAGCUAUUUCUGUGUGUGGAGGGAGACAGGAAAGGGUGCUGUGCUUGGAAUUCUCGGGUGCCAA,1.07
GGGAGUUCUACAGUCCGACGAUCGCUCAGUCAAUCUGGUGCAGAUGAGGCUGGACAACUACUAACCAAUAAAAUCAGGAGUUUGUACAAAAGUUAAAUGGAACAUUAUAAUUAUUUUAAGUAAUGUUAAUUGAUGGAAUUCUCGGGUGCCAA,0.614
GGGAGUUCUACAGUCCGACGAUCUUGGUGACAGAAGGGACAGACACUUGUGCACAGGUGUCUUUGGUGAUGGGGUUUUUUUUUUUAUAACUUAGUAAAAAAAAAAAAAUGUAUGUGGAAUUCUGUCUCUUGGUUGGAAUUCUCGGGUGCCAA,3.48
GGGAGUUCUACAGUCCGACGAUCACAGUUGGACGUGGUGUUAGUUUUAGACAAACGGGUUUCAUUAUUAUUCCUCUUUGCCUUCUCAAUGUUAAUUUAUUGCAUGGUUUACUCCUUUUCUUUACAGCCGAAAUUGGAAUUCUCGGGUGCCAA,1.61
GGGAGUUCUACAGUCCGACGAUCACUUCCACUUUUUUUUUUUCAAGUAUCUCUCUAAUAACUAAAUGCCACUUAUUUGCAUUCUCCUUGUGGAUUUUUUGUCACCUAAGGAAAUGCAUUUGAUGAGUGCUGGAUGGAAUUCUCGGGUGCCAA,1.9
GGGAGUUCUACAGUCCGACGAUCAUCAACUAUGUAGUUGAUUUUUUUUUGCCAGAAAUUAUAAGUAUUCUACAAUAAAUCUUUAAAUUUGAAAUUUUUUUUGUUUUAUUUGGGAAAAAAAUUGCAUCAUGCAGUGGAAUUCUCGGGUGCCAA,1.53

# Series 2
# Target: Interferon regulatory factor 7, full length, phosphomimetic (IRF7, Homo sapiens, UniProt Q92985, residues 1-503, S101K/S471D/S472D/S475D/S476D/S477D/S483D/S484D/S487D)
# Sequence of UniProt Q92985 (whole entry, unmodified, looked up): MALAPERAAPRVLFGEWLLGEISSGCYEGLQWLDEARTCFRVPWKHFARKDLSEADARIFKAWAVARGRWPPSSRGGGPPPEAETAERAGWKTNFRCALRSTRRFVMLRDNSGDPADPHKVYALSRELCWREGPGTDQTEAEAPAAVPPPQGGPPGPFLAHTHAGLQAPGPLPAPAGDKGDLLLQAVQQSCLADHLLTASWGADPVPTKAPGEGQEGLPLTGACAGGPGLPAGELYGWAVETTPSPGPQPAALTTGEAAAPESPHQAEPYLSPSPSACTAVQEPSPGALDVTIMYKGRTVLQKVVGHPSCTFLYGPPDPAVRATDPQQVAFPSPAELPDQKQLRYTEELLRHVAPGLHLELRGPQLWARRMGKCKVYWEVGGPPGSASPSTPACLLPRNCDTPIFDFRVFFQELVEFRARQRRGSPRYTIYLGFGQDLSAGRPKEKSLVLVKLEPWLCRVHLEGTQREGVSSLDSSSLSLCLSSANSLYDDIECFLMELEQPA
# Method: protein-binding microarray
# Molecule type: double-stranded DNA, one strand shown
# Medium: in vitro
# Tested at: 250 nM
# Notes: 60-bp whole probe
# Together with: salmon DNA 0.4 mg/ml
# Baseline: random background probes
# Reading: higher = stronger binding
# All sequences stand within: GCCTAGCAC … GTCTTGATTCGCTTGACGCTGCTG
Sequence,log fluorescence [z-score]
TTAGGTATCCTTCTCCTATAGTGCTAG,0.645
TTAGATCTCAGTATCTATTAGTGCTAG,0.312
GACGATATCAGTTTCTAGACGTGCTAG,1.21
TTAGGAATCGGGTTTCGGTTAGTGCTA,7.33
GACGACTTCAGTATCGAGACGTGCTAG,0.108
GACGGTATCCTGCTCCTGACGTGCTAG,-0.401
TTAGATATCAGTTTCGATGAGTGCTAG,2.08
CATTGCCTGTTTTTCCCCTGGTGCTAG,0.697
TTAGATATCGGATATCGATTAGTGCTA,0.358
GACGGTCTCAGTCTCGGGACGTGCTAG,0.277
GACGGACTGGACACAGGGGACGTGCTA,-0.808
TTAGGTCTCAGACTGGGTTAGTGCTAG,-0.0727
GTAGGTTTCCTTATCCTTTAGTGCTAG,2.49
TTAGGACTGGGCCTGGGTTAGTGCTAG,0.156
CATCCGTTTCTTCTAGACTTGTGCTAG,1.49
TTAGGTTTCGGGTATAGGTTAGTGCTA,6.2
TTAGGTTTCCTACTGCTATAGTGCTAG,1.19
TTAGAACTGAGTATCGATTGGTGCTAG,0.859
TTAGGTCTCGGTTTCGGTTCGTGCTAG,12.9

# Series 3
# Target: Sal-like protein 4, full length isoform B (SALL4, Homo sapiens, UniProt Q9UJQ4-2, residues 1-616)
# Method: universal PBM
# Molecule type: double-stranded DNA, one strand shown
# Medium: in vitro
# Tested at: not given
# Notes: 8-mer, flanks averaged, mean of replicates
# Reading: higher = stronger binding
# Target sequence (chain): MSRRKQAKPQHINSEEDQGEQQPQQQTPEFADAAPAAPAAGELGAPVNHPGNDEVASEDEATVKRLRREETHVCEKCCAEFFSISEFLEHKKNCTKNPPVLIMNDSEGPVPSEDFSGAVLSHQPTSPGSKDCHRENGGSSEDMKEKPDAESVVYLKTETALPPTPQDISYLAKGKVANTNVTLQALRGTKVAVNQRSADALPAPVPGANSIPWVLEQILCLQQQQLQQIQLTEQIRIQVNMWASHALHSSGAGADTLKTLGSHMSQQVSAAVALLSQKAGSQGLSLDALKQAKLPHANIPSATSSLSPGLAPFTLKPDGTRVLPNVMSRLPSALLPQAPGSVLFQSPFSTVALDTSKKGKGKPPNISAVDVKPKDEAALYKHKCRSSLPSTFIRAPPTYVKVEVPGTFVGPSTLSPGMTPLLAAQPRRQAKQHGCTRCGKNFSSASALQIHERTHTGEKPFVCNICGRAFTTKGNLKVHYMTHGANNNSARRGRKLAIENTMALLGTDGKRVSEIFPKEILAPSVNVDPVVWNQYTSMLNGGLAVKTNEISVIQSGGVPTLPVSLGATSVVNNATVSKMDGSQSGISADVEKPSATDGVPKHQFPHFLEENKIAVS
Sequence,E-score
AAGCACCG,-0.25
AGATTGCT,0.0614
CTATTTTC,0.2
GCTAGGCA,-0.16
GGTTACTA,-0.00671
CACTGATG,-0.218
ACAAAACT,0.144
ACCCAAAT,0.0996
CTCCATAC,-0.0517
GCTGTATA,0.195
CAGATTGC,0.0787
GGAGAAGA,0.00427
CCGGTAGC,-0.316
GGCCCATA,-0.0214
AACCAGGC,-0.157
ACCTCGCT,-0.136
CGGTCTGC,-0.336
TGCTATAA,0.195
CCACTAGC,-0.0693
ATGTTGTG,0.19
AAGCACTT,0.0366
ATACCAAG,0.135
GGTGCGGA,-0.164
CTTCTACA,0.153
ATCAGCAT,0.167

# Series 4
# Target: Prothrombin, mature alpha-thrombin (F2, Homo sapiens, UniProt P00734)
# Method: aptamer microarray, sandwich
# Molecule type: DNA with 2'F-ANA
# Medium: in vitro
# Tested at: 200 nM
# Notes: whole 15-mer aptamer, many near background
# Together with: Cy3 exosite-II aptamer, 400 nM
# Reading: higher = stronger binding
# Sequence: GGTTGGTGTGGTTGG
Modification,mean fluorescence intensity [a.u.]
2'F-ANA at 1 3 6 8 11 13 14,84.5
2'F-ANA at 5 7 8 10 11 12 13 14 15,51.5
2'F-ANA at 1 2 3 6 7 9 11 13 15,127
2'F-ANA at 2 3 4 8 14,395
2'F-ANA at 2 3 4 5 8 11 12 13 14,60.2
2'F-ANA at 1 7 11 13 14 15,56.6
2'F-ANA at 1 2 6 8 10 11 12 13 14 15,51.2
2'F-ANA at 2 3 4 6 7 8 9 10 14,158
2'F-ANA at 2 6 8 10 11 12 14,79.3
2'F-ANA at 2 3 4 9 10 11 12,307
2'F-ANA at 8 10 12 13,200
2'F-ANA at 4 7 8 9 14,109
2'F-ANA at 1 3 4 9 11 12 13 14,70
2'F-ANA at 3 4 5 9 10 12 13,52.5
2'F-ANA at 1 3 4 5 7 9 10 12 14,51.5
2'F-ANA at 9 10 12 13 14,109
2'F-ANA at 1 4 8 11 12 14,57.8
2'F-ANA at 2 5 6 7 8 9 11 13,56.6
2'F-ANA at 1 2 4 5 9 13,92.3
2'F-ANA at 1 2 7 9 10 15,72.5
2'F-ANA at 1 2 9 10 11 12 13,54.5
